Measurements from different studies.
Each line is one published result; not all experiments were run side by side. ± gives the spread as reported.

`O=Cc1c(O)ccc2ccccc12`: “log2 fold change” 3.2 (HUVEC; RNA sequencing, refers to: PTPRH; 75 µM, 24 h; reference: DMSO).
`COc1ccc2c(oc3c4ccc(O)cc4oc(=O)c23)c1CC=C(C)C`: glucose consumption “inactive” (3T3-L1 adipocytes; activator; up to 100 µM).
For `O=C(N1CCCC1)n1cc(-c2ccc(-c3ccccc3)cc2)nn1`, the SILAC ratio was 1.08 ± 0.08 (mouse T-cells; N-terminal labeled proteins, N-terminal enrichment proteomics, refers to: SERF2; 1 nM, 6 h; reference: DMSO).
`COc1cc(CNC(=O)C[C@H](C)CCC=C(C)C)ccc1OCc1cn(-c2ccc([N+](=O)[O-])cc2)nn1` gave a growth percent of 80.1% (NCI-H226; SRB; 10 µM, 48 h).
The apoptotic cells of `NC(CSSCC(N)C(=O)N1CCn2cc(-c3ccccc3)nc2C1CC1CCCCC1)C(=O)N1CCn2cc(-c3ccccc3)nc2C1CC1CCCCC1` (stereo not shown) is reported as 22.4% (MP41; annexin V/PI flow cytometry; 10 µM, 48 h).
For `CC(=O)OC[C@H]1O[C@@H](Sc2sc(C(=O)c3ccc(C)cc3)c(N)c2-c2nc3ccccc3s2)[C@H](OC(C)=O)[C@@H](OC(C)=O)[C@@H]1OC(C)=O`, the growth was 73.6% (SF-295; SRB; 10 µM, 48 h; reference: untreated).
`CC/C=C\C/C=C\C/C=C\C/C=C\C/C=C\C/C=C\CCC(=O)Nc1ccn(C2OC(CO)C(O)C2(F)F)c(=O)n1` (stereo not shown) gave a GI50 of 0.401 µM (SNB-75; cell growth or viability, SRB).
The selectivity index of `CC1=[N+]2N=C(c3ccccc3)[O][Pd-2]2([Cl])[O+]=C2Oc3ccccc3C=C21` (stereo not shown) is reported as 4.62 (HeLa; cytotoxicity, MTT; 48 h; reference: WI-38 over HeLa IC50).
`O=C1Nc2ccc(F)cc2C1=Cc1c(Cl)[nH]c2c1ccc1ccccc12` has a TGI of 8.91 µM (NCI-60 panel mean; 48 h).
With `CC(=C(c1ccc(O)cc1)c1ccc(Cl)cc1)c1ccc(Cl)cc1` the GI50 was 0.78 µM (SNB-75; cell growth or viability, SRB).
For `O=C(/C=C/c1ccc(O)cc1)OC(CO)C(=O)O` (stereo not shown), reporter activity read “no effect” (SW480; β-catenin-dependent transcription, TOPFLASH luciferase reporter; concentration not given).
With `NCCCCCO[C@H]1O[C@H](COS(=O)(=O)O)[C@@H](O[C@@H]2O[C@@H](C(=O)O)[C@@H](O[C@H]3O[C@H](COS(=O)(=O)O)[C@@H](O[C@@H]4O[C@@H](C(=O)O)[C@@H](O[C@H]5O[C@H](COS(=O)(=O)O)[C@@H](O[C@@H]6O[C@@H](C(=O)O)[C@@H](O)[C@H](O)[C@H]6OS(=O)(=O)O)[C@H](O)[C@H]5NS(=O)(=O)O)[C@H](O)[C@H]4OS(=O)(=O)O)[C@H](O)[C@H]3NS(=O)(=O)O)[C@H](O)[C@H]2OS(=O)(=O)O)[C@H](O)[C@H]1NS(=O)(=O)O` the wound closure was roughly 75% (human corneal epithelial cells; cell migration, scratch; concentration not given, 24 h).
Under inhibition, `N=C(N)NCCC[C@H](N)C(=O)NCC(=O)N[C@@H](CC(=O)O)C(=O)N[C@@H](CO)C(=O)O` is recorded as “inhibited” (BHK; cell spreading on fibronectin; up to 1.0 mg/mL, 60 min, added: fibronectin 2 µg/mL coat).
`CC(C)[C@@H]1NC(=O)[C@@H](Cc2ccccc2)NC(=O)[C@H](CC(=O)O)NC(=O)CNC(=O)[C@H](CCCNC(=N)N)NC1=O` gave a survival decrease of 6% (B16/F1; 0.1 µM, 3 h, 37 °C, read 5 days later; reference: untreated).
`COc1ccc([C@@H]2CC(=O)c3c(O)cc(O[C@@H]4O[C@H](CO[C@@H]5O[C@@H](C)[C@H](O)[C@@H](O)[C@H]5O)[C@@H](O[C@H]5O[C@H](CO)[C@@H](O)[C@H](O)[C@H]5O)[C@H](O)[C@H]4O)cc3O2)cc1O` has a viability of 32.6% (A549; cell growth or viability, MTS; 150 µg/mL, 72 h).
For `Cc1ccc(C(C)C)cc1.Oc1ccccc1C=NNC1=Nc2ccccc2-c2[nH]c3ccc(Br)cc3c2C1.[Cl-].[Cl][Ru+]`, the apoptotic cells was 72% (SW480; annexin V/PI flow cytometry; 5 µM, 48 h, early plus late apoptosis).
For `Cc1nc(C)c(C=[N+]([O-])C(C)(C)C)nc1C`, the reporter gene was 142 ± 14.7% (N2a; luciferase, refers to: PGC-1α promoter; 300 µM; reference: basal).
`Cc1cc([C@H](C(=O)N2C[C@H](O)C[C@H]2C(=O)N[C@@H](CC(=O)N2CCC(N3CCC(C#Cc4ccc(C(=O)N[C@H]5C(C)(C)[C@H](Oc6ccc(C#N)c(Cl)c6)C5(C)C)cc4)CC3)CC2)c2ccc(-c3scnc3C)cc2)C(C)C)on1`: “total AKT level” “no effect” (MDA-MB-453; concentration not given, 24 h, added: 1 nM R1881).
`O=C1Nc2ccccc2/C1=N\Nc1nnc2n1N=C(c1ccc(Cl)cc1)CS2` — result for “number of sensitive cell lines”: 30 (NCI-60 cell line panel; 10 µM, growth inhibition above 10%).
For `COc1cc(CNC(=O)C[C@H](C)CCC=C(C)C)ccc1OCc1cn(-c2ccccc2)nn1`, the growth percent was 79.4% (K562 leukaemia cells; SRB; 10 µM, 48 h).
Under migrating cells, `COc1cc2c(OC3OCC(OC)C(OC)C3OC(=O)c3ccc(Br)cc3)c3c(c(-c4ccc5c(c4)OCO5)c2cc1OC)C(=O)OC3` (stereo not shown) is recorded as “decreased” (FaDu; transwell; 0.1 and 1 µM, 36 h; reference: DMSO).
With `O=c1c2ccccc2[se]n1CCCCCCn1[se]c2ccccc2c1=O` the maximal inhibition was 100% (H22; cell growth, EZMTT).
With `COc1cc(CNC(=O)C[C@H](C)CCC=C(C)C)ccc1OCc1cn(-c2ccc(Cl)c(Cl)c2)nn1` the growth percent was 51.9% (K562 leukaemia cells; SRB; 10 µM, 48 h).
`C[C@H](C(=O)Nc1ccc(Cn2cc(C(F)(F)F)ccc2=O)cc1)N(C)C` has an inhibition of 60.2% (NIH3T3; cell growth or viability, CCK-8; 1 mM).
`CC(=O)OC[C@H]1O[C@@H](Sc2sc(C(=O)c3ccc(Br)cc3)c(N)c2-c2nc3ccccc3s2)[C@H](OC(C)=O)[C@@H](OC(C)=O)[C@H]1OC(C)=O` gave a growth of 97.1% (SF-295; SRB; 10 µM, 48 h; reference: untreated).
`O=C(NN1C(=O)c2ccccc2NC1c1ccc([N+](=O)[O-])o1)c1ccc([N+](=O)[O-])cc1` (stereo not shown) — result for cell proliferation: “no effect” (mouse LDR cells; MTS; dose not given, 4 days).
Under activity, `CCOC(=O)CCC(NC(=O)C(NC(=O)c1c(C)nn(-c2ccc(F)cc2)c1C)C(C)C)C(=O)OCC` (stereo not shown) is recorded as “inactive” (HEK-Blue Null2 cells; NF-κB reporter gene, agonist; 10 µM, 16 h).
With `COc1cc(CNC(=O)C[C@H](C)CCC=C(C)C)ccc1OCc1cn(-c2ccccc2Cl)nn1` the growth percent was 39.6% (UACC-62 melanoma cells; SRB; 10 µM, 48 h).
For `CO[C@H]1N(OC)c2ccccc2[C@@]12CN=C(Nc1cc(C(F)(F)F)cc(C(F)(F)F)c1)S2` (relative stereo), the viable cells was 37.9 ± 9.12% (HCT-116; annexin V/PI flow cytometry; 40 µM, 48 h).
With `CCC12CCc3c(c4ccccc4n3C)CCN(CC3OC31)C2` (stereo not shown) the inhibition was 64.6 ± 0.1% (BV-2; NO production; 12 µM, 1 h, 24 h stimulation, added: LPS 800 ng/mL; reference: LPS control).
Under mRNA level, `CCCc1nc2cc(C(=O)N3CCC4(CC3)CC(=O)c3cc5c(cc3O4)OC(C)(C)CC5)cc(C)c2[nH]1` is recorded as “increased” (AML12, mouse primary hepatocytes; refers to: Pnpla3, lipolysis genes; 1 µM, 24 h).
`COc1cc(CNC(=O)C[C@H](C)CCC=C(C)C)ccc1OCc1cn(-c2ccc(Cl)cc2Cl)nn1` has a growth percent of 65.6% (UACC-62 melanoma cells; SRB; 10 µM, 48 h).
`COc1c(Cl)c(/C=C(\C)C(=O)O)c(OC)c2ccccc12` — result for viability: “no effect” (NF90-8 and Pa03C reporter cells; alamarBlue; concentration not given).
`CC(C)=CCc1cc2c(cc1O)OC[C@H]1c3ccc(O)c(CC=C(C)C)c3O[C@@H]21`: glucose consumption “inactive” (3T3-L1 adipocytes; activator; up to 100 µM).

A few entries again:
`O=C(NN1C(=O)c2ccccc2NC1c1ccc([N+](=O)[O-])o1)c1ccc([N+](=O)[O-])cc1` (stereo not shown) — result for cell proliferation: “no effect” (mouse LDR cells; MTS; dose not given, 4 days).
`C[C@H](C(=O)Nc1ccc(Cn2cc(C(F)(F)F)ccc2=O)cc1)N(C)C` has an inhibition of 60.2% (NIH3T3; cell growth or viability, CCK-8; 1 mM).
